Measured values gathered from unrelated publications.
Numbers after ± are the reported error. ≈ marks a conversion by molar mass, not a printed value.
Organism: Escherichia coli

SMILES | test | system | conditions | how to read | quantity | result
CC(C)[C@@H]1NC(=O)[C@H](C)OC(=O)[C@@H](C(C)C)NC(=O)[C@@H](C(C)C)OC(=O)[C@H](C(C)C)NC(=O)[C@H](C)OC(=O)[C@@H](C(C)C)NC(=O)[C@@H](C(C)C)OC(=O)[C@H](C(C)C)NC(=O)[C@H](C)OC(=O)[C@@H](C(C)C)NC(=O)[C@@H](C(C)C)OC1=O | checkerboard | tetracycline-resistant (pBR322) | 20 µM, together with: tetracycline | – | tetracycline MIC | 450 ± 100 µM
CCOC(=O)COc1ccc2ccc3oc([N+](=O)[O-])cc3c2c1 | REMA | – | – | – | MIC90 | > 32 µg/mL
O=C/C=C/c1ccccc1 | – | MTCC 730 | 1000 µg/mL, 18 h | – | zone of inhibition | 7 mm
C[C@H]1[C@H](NC(=O)/C(=N\OC(C)(C)C(=O)O)c2csc(N)n2)C(=O)N1S(=O)(=O)O | – | ATCC 2469 NDM-1, ICR mouse systemic infection | intravenous | – | ED50 | 70.1 mg/kg
O=C(O)c1cccc(C(=O)O)n1 | – | ATCC 25922, no carbapenemase | 32 µg/mL, together with: meropenem | reference: meropenem alone | fold MIC reduction | ≥ 1
CC[C@@H](C)[C@@H](N)C(=O)N[C@@H](C(=O)N[C@H](Cc1ccc(O)cc1)C(=O)N[C@@H](C(=O)N[C@H](CCCNC(=N)N)C(=O)N[C@H](CC(C)C)C(=O)N[C@H](CO)C(=O)N[C@H](CCCNC(=N)N)C(=O)N[C@@H](C(=O)N[C@H](CCCNC(=N)N)C(=O)N[C@H](Cc1c[nH]cn1)C(=O)N[C@H](CCCNC(=N)N)C(=O)N[C@H](C)C(=O)N[C@H](CCCNC(=N)N)C(=O)N[C@H](CCCNC(=N)N)C(N)=O)[C@H](C)CC)[C@H](C)CC)[C@H](C)CC | – | ATCC 25922, 100% human serum | 20 h, 37 °C | – | MBC | > 64 µg/mL
CC(C)C[C@H](NC(=O)[C@H](CCN)NC(=O)[C@H](CCN)NC(=O)[C@@H](Cc1ccccc1)NC(=O)[C@H](CC(C)C)NC(=O)[C@H](CCN)NC(=O)[C@H](CCN)NC(=O)[C@@H](CCN)NC(=O)[C@@H](N)CSCCOC(=O)c1ccccc1)C(N)=O | – | ATCC 10546 | 24 h, 37 °C | – | MBC | 8 µM
CC[C@H](C)[C@H](NC(=O)CN)C(=O)N[C@@H](C)C(=O)N[C@@H](CC(=O)O)C(=O)N[C@@H](C)C(=O)N[C@H](C(=O)N[C@@H](CCCCN)C(=O)N[C@@H](CCCCN)C(=O)N[C@H](C(=O)N[C@@H](C)C(=O)N[C@@H](CCCCN)C(=O)N[C@@H](C)C(=O)N[C@@H](CC(C)C)C(=O)NCC(N)=O)[C@@H](C)CC)[C@@H](C)CC | – | ATCC 25922, Mueller-Hinton broth | 12 h, 37 °C | – | MIC | 64 µg/mL (≈ 46.8 µM)
CC[C@H](C)[C@H](N)C(=O)N[C@@H](CO)C(=O)N[C@@H](Cc1ccccc1)C(=O)N[C@@H](CC(C)C)C(=O)NCC(=O)N[C@@H](CO)C(=O)N[C@@H](CCCCN)C(=O)N[C@H](C(=O)N[C@H](C(=O)N[C@H](C(=O)N[C@@H](CC(C)C)C(=O)N[C@@H](CC(C)C)C(=O)N[C@@H](CCCCN)C(=O)N[C@@H](CCCNC(=N)N)C(=O)N[C@@H](CCCNC(=N)N)C(=O)N[C@@H](CCCCN)C(=O)N[C@@H](CCCNC(=N)N)C(=O)N[C@@H](CCCCN)C(=O)N[C@@H](CCCNC(=N)N)C(=O)N[C@@H](CCCCN)C(N)=O)C(C)C)C(C)C)C(C)C | checkerboard | – | unit not given, together with: rifampicin | lower means synergy | FICI | 0.27
C[C@@H](O)[C@H]1C(=O)N2C(C(=O)O)=C(SCCN=CN)C[C@H]12 | – | DH5a clone with KPC-136 | – | reference: empty vector strain | MIC fold increase | 16 fold
CCc1c([N+](=O)[O-])oc2ccc3ccccc3c12 | REMA | – | – | – | MIC90 | 1 µg/mL (≈ 4.15 µM)
CC[C@@H](C)[C@@H](N)C(=O)N[C@@H](C(=O)N[C@H](Cc1ccc(O)cc1)C(=O)N[C@@H](C(=O)N[C@H](CCN)C(=O)N[C@H](CC(C)C)C(=O)N[C@H](CO)C(=O)N[C@H](CCN)C(=O)N[C@@H](C(=O)N[C@H](CCN)C(=O)N[C@H](Cc1c[nH]cn1)C(=O)N[C@H](CCN)C(=O)N[C@H](C)C(=O)N[C@H](CCN)C(=O)N[C@H](CCN)C(N)=O)[C@H](C)CC)[C@H](C)CC)[C@H](C)CC | – | ATCC 25922, Mueller-Hinton broth | 20 h, 37 °C | – | MBC | 4 µg/mL
C[C@@H](O)[C@H]1C(=O)N2C(C(=O)O)=C(S[C@@H]3CN[C@H](C(=O)N(C)C)C3)[C@H](C)[C@H]12 | checkerboard | carbapenem-resistant | concentration not given, together with: anionic gold nanoparticle 8 µg/mL | reference: MIC alone over combination | MIC fold reduction | 32 fold
CC[C@H](C)[C@H](NC(=O)[C@H](Cc1c[nH]c2ccccc12)NC(=O)[C@@H](NC(=O)[C@H](Cc1c[nH]c2ccccc12)NC(=O)[C@@H]1CCCN1C(=O)[C@@H](NC(=O)[C@H](C)N)[C@@H](C)CC)[C@@H](C)CC)C(=O)N[C@@H](Cc1c[nH]c2ccccc12)C(=O)N[C@@H](CCCNC(=N)N)C(=O)N[C@@H](CC(C)C)C(=O)N[C@@H](CC(C)C)C(=O)N[C@@H](CCCNC(=N)N)C(=O)N[C@@H](CCCCN)C(=O)NCC(N)=O | – | D31 | 18 h, 37 °C | – | MBC | 7.5 µM
O=[N+]([O-])c1cc2c(ccc3c4cc([N+](=O)[O-])oc4ccc23)o1 | REMA | – | – | – | MIC90 | > 32 µg/mL
CC[C@H](C)[C@H](NC(=O)[C@H](CCCCN)NC(=O)[C@@H](NC(=O)[C@H](Cc1ccc(O)cc1)NC(=O)[C@H](CCCCN)NC(=O)[C@H](CCCCN)NC(=O)CNC(=O)[C@H](CCCCN)NC(=O)[C@@H](NC(=O)[C@H](C)NC(=O)[C@H](CC(C)C)NC(=O)[C@H](Cc1c[nH]c2ccccc12)NC(=O)CNC(=O)[C@@H](NC(=O)[C@H](Cc1ccccc1)NC(=O)[C@H](CCCCN)NC(=O)[C@H](CC(C)C)NC(=O)[C@H](Cc1ccccc1)NC(=O)[C@H](C)NC(=O)CNC(=O)[C@@H](N)CCSC)C(C)C)[C@@H](C)O)C(C)C)C(=O)N[C@@H](C)C(=O)N[C@@H](Cc1c[nH]c2ccccc12)C(=O)N[C@@H](CC(=O)O)C(=O)N[C@@H](Cc1c[nH]cn1)C(=O)N[C@@H](CCCCN)C(=O)NCC(=O)N[C@H](C(=O)N[C@H](C(=O)N[C@@H](CCSC)C(=O)N[C@@H](CCCCN)C(=O)N[C@@H](Cc1c[nH]c2ccccc12)C(=O)N[C@@H](CC(C)C)C(=O)N[C@@H](CC(N)=O)C(=O)N[C@@H](C)C(=O)NCC(=O)N[C@@H](CCC(N)=O)C(=O)N[C@H](C(=O)N[C@@H](Cc1ccccc1)C(=O)N[C@H](C(=O)N[C@@H](Cc1c[nH]c2ccccc12)C(=O)N[C@H](C(=O)N[C@@H](Cc1ccc(O)cc1)C(=O)N[C@@H](CCC(=O)O)C(=O)N[C@@H](CCC(N)=O)C(=O)N[C@H](C(=O)N[C@@H](CCCCN)C(=O)N[C@@H](CCCCN)C(=O)N[C@@H](CC(C)C)C(=O)N[C@@H](Cc1c[nH]c2ccccc12)C(=O)N[C@H](C(=O)O)[C@@H](C)O)[C@@H](C)CC)C(C)C)[C@@H](C)O)[C@@H](C)O)[C@@H](C)CC)[C@@H](C)O | – | DH5α | 37 °C, non-formylated synthetic | – | MIC | > 62.5 µg/mL
CC(N)C(O)CCCCCCCCCCCCCCC(=O)CCCCCCCC(O)C(C)N (stereo not drawn) | resazurin | ATCC 10536 | 50 µM | – | growth inhibition | 98 ± 0.31%
CCCCCCCCCCCc1c([N+](=O)[O-])oc2ccc3ccccc3c12 | REMA | – | – | – | MIC90 | > 32 µg/mL
COc1ccc(CC2NCCc3cc(OC)c(OC)cc32)cc1OC.Cl (stereo not drawn) | – | – | 24 h, 37 °C | – | MIC50 | > 1600 µM
CC[C@H](C)[C@H](NC(=O)[C@H](CC(C)C)NC(=O)[C@@H](NC(=O)[C@H](CCCNC(=N)N)NC(=O)[C@H](CCCNC(=N)N)NC(=O)[C@H](CCCNC(=N)N)NC(=O)[C@@H](N)CCCNC(=N)N)[C@@H](C)CC)C(=O)N[C@@H](CCCCN)C(=O)N[C@@H](CCCCN)C(=O)N[C@H](C(=O)N[C@@H](CC(C)C)C(=O)N[C@@H](CCCCN)C(=O)N[C@@H](CC(C)C)C(=O)N[C@@H](CCCCN)C(=O)N[C@@H](CO)C(=O)N[C@@H](CO)C(=O)N[C@@H](C)C(=O)N[C@@H](Cc1ccc(O)cc1)C(N)=O)C(C)C | checkerboard | – | unit not given, together with: rifampicin | lower means synergy | FICI | 0.19
Cc1cc(-c2cn[nH]c2-c2cccc(OCc3cccc(C#N)c3)c2)cc(C)n1 | – | multidrug-resistant clinical isolates | – | – | MIC | 8 µg/mL (≈ 21 µM)

Excerpt of the above:
SMILES | test | system | conditions | how to read | quantity | result
Cc1cc(-c2cn[nH]c2-c2cccc(OCc3cccc(C#N)c3)c2)cc(C)n1 | – | multidrug-resistant clinical isolates | – | – | MIC | 8 µg/mL (≈ 21 µM)
